Results from different studies.
Numbered parts are unrelated; each lists some results of a single study. Changes are numbered by the printed parent chain.

Study 1 — technique: EMSA with sequencing; molecule type: double-stranded DNA, one strand shown; sample: in vitro; tested at: 10 and 20 nM; relative to: negative control set to 0; reading: higher = stronger binding; quantity: normalised bound fraction
Target: Hepatocyte nuclear factor 3-alpha (Foxa1, Mus musculus, UniProt P35582, residues 1-468, full length assumed)
Setting: whole designed probe, mean of two concentrations, ends assumed
Construct (chain): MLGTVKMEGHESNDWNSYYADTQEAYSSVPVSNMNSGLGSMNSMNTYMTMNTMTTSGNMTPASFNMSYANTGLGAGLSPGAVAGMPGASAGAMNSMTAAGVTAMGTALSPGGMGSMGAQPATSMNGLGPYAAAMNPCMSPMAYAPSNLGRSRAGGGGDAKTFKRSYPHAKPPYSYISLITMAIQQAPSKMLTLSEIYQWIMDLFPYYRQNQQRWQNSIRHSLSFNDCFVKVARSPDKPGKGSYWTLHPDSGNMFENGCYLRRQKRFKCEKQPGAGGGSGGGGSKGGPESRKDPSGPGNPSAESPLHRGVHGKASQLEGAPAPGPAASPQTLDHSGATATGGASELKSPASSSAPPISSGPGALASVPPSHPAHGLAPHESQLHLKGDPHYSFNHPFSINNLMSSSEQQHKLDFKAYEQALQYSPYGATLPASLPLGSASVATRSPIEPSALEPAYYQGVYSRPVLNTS
Strand = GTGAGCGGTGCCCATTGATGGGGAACTGGAATTCAAATTCCAGTGGCTTAACTGCAAGAGTCCCTGCTTCCATCACTCTGTTAGGCTGTACTCATGGCCTTGAAATATCCCTTAAGGTTATTTACTTTCTTATGCTCTGGTTCTTTGCTAAACAAACAAGCTTTCAATTATTAATTTGGCTTCCTACGTGTTCTGATCCTGTAAAGGAATTATTCCATTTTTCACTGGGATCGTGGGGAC; value = 0.506 ratio
Strand = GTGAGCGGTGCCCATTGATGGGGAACTTGTTACAAATAATGAGAAAACATTTAGTGAAACACTTTAAACGTGTTTTTTTAAAAGAATATTTATTGTCTTATTGCTAAGAAAGAGTTCAGTGTAAACATGTATCAGTTTATCACTTGCTCAGAAGAAATTACTTAAAAATAAATGAGGTTGGTTTAGACGTACTAGTCTATTTTTACTGAAACACAAGCATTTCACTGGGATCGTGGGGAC; value = 0.154 ratio
Strand = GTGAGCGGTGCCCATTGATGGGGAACAGATTCCAGCCAGCAGAATAGGAATTTCAGAATACGATAAGGAGATGTTAAGGAAGGTCAGGCAGTAAAAAGAGGTTTGCTGACTCATGTGGTTAGATGACTTAGCAAGTCAGGGAGAAGTCAATAGATTGCTCTCCTGTTTTACAGTCTTTAGGTGTGGGCCAGCCCAGGGCCATTGATAGTCATTTTAGCCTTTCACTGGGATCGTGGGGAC; value = -0.0436 ratio
Strand = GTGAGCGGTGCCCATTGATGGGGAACATTGTACCTAGCTTCAATACAGTTATCTAAACCAGGAAAATGGTTTTCTGACTGTATTAGTCGCCTAGGGCTGCTTTAATAGGTCTTGCAAAAGTACACATATACTTGTCTTAACACTCAGCAATTCCACCGTTAGTATTTACCCCAAAATGATAAGCAATTCTGCAAATATGCTTCAGTTTACATATTTAGATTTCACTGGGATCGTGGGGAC; value = 0.406 ratio
Strand = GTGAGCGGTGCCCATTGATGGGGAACATCTTCCCCCTCTTCCTTGCCCCACCAGCTCACCTACGGGGGTTATTTGCAGATAGGAAAATAAATAAAGCCGGCATTCGTTAACCCTCTTCACGCGCATACTGCTGTTTGCTCTGGATGAATCATGGTCCTTTGGCGACGCCAGGCTCCGGGAGAGCAAAGCACCGTGTCAGGGCCATGATCCGGGGTGGCCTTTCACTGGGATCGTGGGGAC; value = 0.351 ratio
Strand = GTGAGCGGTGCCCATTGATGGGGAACGGTTAGAGGAAGTAAGGTAATGCAAGTGTTAAATTATGTGTGAAAGATGGGATGCCTGGAAGAAATTCATATCACAAATATTACAGAAAGATAAGTAAACAGGGATTTAATATTCATGGATTTTTCTCCTATTTTATTTAAAATGTCAGACCTGTCTTAATGAGGTTCTACTGACATTTATTCTTTTTTAATTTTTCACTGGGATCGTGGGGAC; value = 0.281 ratio
Strand = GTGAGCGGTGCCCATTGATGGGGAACAGGCACAAGGTATGAATCACTAAGAATCTAGCAGCAGCTCTAGAAGCCTCCAAAGATAATTGCACTTCCCCAACGGGGGTGGAGTAGGGGGACGTAAATATGAAAGAACAGTGGATGGCCTAAATCAGTATGTGTCACTCTTTGTAAAGAGCCACAAGTGTTTGACTAGGGAAAAAGGAAAAGAGGCGAGAGTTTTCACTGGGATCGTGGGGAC; value = 0.0315 ratio
Strand = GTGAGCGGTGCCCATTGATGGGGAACATCTTCCCCCTCTTCCCCCTCACGTCAGCTCACCTTCCCGGGTTATTTGCAGATAGGAAAATAAATAAAGCCGGCATTCGTTAACCCTCTTCTGGCGCAAACTGCTGTTTGCTCTGGATGAATCATGGTCCTTTGGCGACGCCAGGCTCCGGGAGAGCAAAGCACCGTGTCAGGGCCATGATCCGGGGTGGCCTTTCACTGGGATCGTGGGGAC; value = 0.329 ratio

Study 2 — technique: DHFR PCA, deep sequencing; sample: yeast; with: (+)-ABA 0.0091 µM; relative to: wild-type fitted maximum; reading: higher = stronger binding; quantity: relative binding score
Target: ABI1, truncated, D143A, DHFR fusion (Arabidopsis thaliana)
Setting: methotrexate growth selection, single substitutions
Parent: PYL1, truncated, DHFR fusion (Arabidopsis thaliana); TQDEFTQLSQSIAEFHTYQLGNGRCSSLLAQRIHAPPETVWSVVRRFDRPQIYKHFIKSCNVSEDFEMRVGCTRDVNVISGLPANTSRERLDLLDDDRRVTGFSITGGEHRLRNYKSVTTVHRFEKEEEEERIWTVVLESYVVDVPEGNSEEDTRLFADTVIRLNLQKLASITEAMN
Change = R132M; value = 20.4%
Change = T39L; value = 53.1%
Change = V136R; value = -9.41%
Change = I162C; value = 5.42%
Change = A175Q; value = 28.6%
Change = R69E; value = 17.2%
Change = V44S; value = -5.07%
Change = S80Y; value = 68.2%

Study 3 — target: CCND1, cyclin fold, Cln2 fusion (human); technique: yeast growth competition, sequencing; sample: yeast; setting: weak parent motif; relative to: not given; reading: higher = stronger binding; quantity: normalised enrichment score
Parent: BRCA2 docking peptide (human); PSIKRNLLNEFDR
Change = R5W; value = 0.101
Change = R13Y; value = 0.338
Change = L8P; value = -0.324
Change = I3E; value = 0.164
Change = I3K; value = 0.432
Change = L7H; value = -0.121
Change = F11P; value = -0.348
Change = K4W; value = -0.526

Other studies, line by line
SMILES = C/C(=C\c1ccc(C(=O)O)cc1)CN1CCN(c2ccccn2)CC1; host = human; sample = microsomes or S9; tested at = 2 µM; time = 0.5 h; quantity = remaining compound; value = 49.2%

For quick reference, copied from above (study 1):
Strand = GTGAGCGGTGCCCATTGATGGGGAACAGGCACAAGGTATGAATCACTAAGAATCTAGCAGCAGCTCTAGAAGCCTCCAAAGATAATTGCACTTCCCCAACGGGGGTGGAGTAGGGGGACGTAAATATGAAAGAACAGTGGATGGCCTAAATCAGTATGTGTCACTCTTTGTAAAGAGCCACAAGTGTTTGACTAGGGAAAAAGGAAAAGAGGCGAGAGTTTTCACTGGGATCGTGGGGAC; value = 0.0315 ratio
Strand = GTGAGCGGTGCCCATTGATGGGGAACATCTTCCCCCTCTTCCCCCTCACGTCAGCTCACCTTCCCGGGTTATTTGCAGATAGGAAAATAAATAAAGCCGGCATTCGTTAACCCTCTTCTGGCGCAAACTGCTGTTTGCTCTGGATGAATCATGGTCCTTTGGCGACGCCAGGCTCCGGGAGAGCAAAGCACCGTGTCAGGGCCATGATCCGGGGTGGCCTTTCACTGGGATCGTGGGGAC; value = 0.329 ratio
